Published values of several laboratories.
Protocols differ between the studies behind these lines. “And” joins repeats or separate records; there may be more than shown. ± gives the spread as reported.
FAAH: Fatty-acid amide hydrolase 1 (FAAH, Homo sapiens, UniProt O00519)
UniProt P04035, sequence (whole entry, looked up): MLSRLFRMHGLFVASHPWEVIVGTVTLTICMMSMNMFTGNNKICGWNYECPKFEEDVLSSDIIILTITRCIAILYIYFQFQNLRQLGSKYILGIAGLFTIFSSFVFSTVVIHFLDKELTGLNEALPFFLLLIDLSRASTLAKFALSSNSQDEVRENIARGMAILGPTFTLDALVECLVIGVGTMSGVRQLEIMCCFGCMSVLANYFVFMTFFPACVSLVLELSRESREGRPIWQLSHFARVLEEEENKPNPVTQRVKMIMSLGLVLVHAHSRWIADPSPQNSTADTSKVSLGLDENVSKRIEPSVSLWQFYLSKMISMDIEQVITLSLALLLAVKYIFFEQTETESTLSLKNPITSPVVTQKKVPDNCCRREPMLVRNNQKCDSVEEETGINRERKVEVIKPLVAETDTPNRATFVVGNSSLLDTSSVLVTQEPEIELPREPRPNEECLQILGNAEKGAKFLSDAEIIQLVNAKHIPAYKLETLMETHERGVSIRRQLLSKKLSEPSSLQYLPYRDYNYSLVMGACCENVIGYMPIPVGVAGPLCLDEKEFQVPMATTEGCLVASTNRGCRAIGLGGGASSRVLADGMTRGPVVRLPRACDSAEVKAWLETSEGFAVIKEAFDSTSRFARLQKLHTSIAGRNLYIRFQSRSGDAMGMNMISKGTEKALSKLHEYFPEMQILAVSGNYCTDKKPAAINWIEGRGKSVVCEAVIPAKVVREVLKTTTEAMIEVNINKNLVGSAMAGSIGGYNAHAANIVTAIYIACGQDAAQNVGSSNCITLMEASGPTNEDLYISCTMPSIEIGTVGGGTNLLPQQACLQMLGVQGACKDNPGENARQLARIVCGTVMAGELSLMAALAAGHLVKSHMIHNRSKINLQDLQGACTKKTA
UniProt P05177, sequence (whole entry, looked up): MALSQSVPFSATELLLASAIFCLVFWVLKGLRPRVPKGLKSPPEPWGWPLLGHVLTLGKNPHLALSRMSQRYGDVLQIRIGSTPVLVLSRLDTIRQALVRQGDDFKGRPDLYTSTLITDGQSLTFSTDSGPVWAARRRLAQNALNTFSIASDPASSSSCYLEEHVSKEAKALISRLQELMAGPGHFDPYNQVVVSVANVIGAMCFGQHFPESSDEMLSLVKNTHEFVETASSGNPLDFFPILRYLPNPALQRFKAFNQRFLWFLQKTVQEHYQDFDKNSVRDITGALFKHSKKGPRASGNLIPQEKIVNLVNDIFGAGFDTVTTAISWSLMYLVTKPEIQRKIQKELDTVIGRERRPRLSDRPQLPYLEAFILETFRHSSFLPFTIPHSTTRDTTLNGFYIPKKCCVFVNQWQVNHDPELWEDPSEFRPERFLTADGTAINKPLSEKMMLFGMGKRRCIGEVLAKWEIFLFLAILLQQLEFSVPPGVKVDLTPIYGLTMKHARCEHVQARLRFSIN
UniProt O75874, sequence (whole entry, unmodified, looked up): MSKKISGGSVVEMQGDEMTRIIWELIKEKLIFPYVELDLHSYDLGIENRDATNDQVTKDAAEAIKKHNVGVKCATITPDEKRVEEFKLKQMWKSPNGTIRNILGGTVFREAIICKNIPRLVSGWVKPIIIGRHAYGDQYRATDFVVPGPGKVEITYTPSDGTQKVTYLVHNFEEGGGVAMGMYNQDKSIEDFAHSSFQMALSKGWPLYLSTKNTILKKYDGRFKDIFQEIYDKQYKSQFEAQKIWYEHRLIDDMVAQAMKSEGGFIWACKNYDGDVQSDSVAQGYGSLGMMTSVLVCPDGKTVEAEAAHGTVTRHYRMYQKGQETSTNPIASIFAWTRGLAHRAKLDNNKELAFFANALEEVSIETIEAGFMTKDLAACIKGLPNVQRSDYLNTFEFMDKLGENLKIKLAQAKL
UniProt O00519, sequence (whole entry, looked up): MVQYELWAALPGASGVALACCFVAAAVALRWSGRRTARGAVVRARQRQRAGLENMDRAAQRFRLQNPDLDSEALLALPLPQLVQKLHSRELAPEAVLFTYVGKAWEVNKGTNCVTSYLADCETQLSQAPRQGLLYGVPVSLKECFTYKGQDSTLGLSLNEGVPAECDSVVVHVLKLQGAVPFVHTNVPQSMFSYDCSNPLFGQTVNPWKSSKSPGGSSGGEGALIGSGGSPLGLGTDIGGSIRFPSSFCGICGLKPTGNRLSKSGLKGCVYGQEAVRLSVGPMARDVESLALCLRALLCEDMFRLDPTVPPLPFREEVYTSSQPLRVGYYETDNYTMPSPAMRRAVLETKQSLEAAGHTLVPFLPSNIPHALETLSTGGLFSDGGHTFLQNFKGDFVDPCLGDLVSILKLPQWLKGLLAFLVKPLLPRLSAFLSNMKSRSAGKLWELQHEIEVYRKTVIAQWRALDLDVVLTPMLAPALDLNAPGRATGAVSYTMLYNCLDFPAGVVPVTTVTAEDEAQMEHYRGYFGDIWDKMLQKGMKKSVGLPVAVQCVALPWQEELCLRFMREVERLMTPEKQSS
UniProt P61073, sequence (whole entry, looked up): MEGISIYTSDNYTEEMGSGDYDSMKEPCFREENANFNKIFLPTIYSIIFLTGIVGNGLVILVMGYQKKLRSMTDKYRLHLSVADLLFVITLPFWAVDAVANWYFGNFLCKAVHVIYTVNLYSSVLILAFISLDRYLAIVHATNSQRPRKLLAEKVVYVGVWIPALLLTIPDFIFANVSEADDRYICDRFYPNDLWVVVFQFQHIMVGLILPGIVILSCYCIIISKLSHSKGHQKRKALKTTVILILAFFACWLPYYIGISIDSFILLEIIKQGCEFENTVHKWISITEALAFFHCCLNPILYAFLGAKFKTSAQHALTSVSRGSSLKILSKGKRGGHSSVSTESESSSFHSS
UniProt P09874, sequence (whole entry, looked up): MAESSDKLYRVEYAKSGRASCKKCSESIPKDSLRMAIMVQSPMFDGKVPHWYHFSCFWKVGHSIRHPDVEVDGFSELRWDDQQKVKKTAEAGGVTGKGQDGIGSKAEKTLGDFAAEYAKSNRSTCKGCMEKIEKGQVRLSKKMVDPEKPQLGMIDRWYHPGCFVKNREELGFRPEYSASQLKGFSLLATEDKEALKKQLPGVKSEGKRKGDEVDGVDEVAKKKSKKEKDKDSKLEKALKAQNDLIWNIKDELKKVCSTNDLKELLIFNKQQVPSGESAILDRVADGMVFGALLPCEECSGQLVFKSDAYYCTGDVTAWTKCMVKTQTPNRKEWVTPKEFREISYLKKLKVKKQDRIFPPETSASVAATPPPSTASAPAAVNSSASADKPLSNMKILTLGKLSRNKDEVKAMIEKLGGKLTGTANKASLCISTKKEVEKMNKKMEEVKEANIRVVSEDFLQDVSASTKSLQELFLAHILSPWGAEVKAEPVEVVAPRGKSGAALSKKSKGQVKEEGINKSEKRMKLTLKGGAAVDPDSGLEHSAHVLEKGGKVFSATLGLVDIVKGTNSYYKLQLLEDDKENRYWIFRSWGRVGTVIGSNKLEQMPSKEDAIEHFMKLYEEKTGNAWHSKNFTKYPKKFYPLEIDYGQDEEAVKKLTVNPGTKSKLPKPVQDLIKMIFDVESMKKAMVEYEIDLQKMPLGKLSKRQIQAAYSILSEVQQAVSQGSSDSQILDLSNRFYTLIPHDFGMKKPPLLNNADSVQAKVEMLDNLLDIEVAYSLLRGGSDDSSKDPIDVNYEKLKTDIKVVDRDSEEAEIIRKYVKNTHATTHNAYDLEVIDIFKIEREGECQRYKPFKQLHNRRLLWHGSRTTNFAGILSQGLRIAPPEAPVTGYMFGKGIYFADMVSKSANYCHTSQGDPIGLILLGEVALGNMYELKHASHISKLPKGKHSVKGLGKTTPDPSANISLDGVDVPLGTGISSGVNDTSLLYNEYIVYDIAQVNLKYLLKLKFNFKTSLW
UniProt Q16881, sequence (whole entry, looked up): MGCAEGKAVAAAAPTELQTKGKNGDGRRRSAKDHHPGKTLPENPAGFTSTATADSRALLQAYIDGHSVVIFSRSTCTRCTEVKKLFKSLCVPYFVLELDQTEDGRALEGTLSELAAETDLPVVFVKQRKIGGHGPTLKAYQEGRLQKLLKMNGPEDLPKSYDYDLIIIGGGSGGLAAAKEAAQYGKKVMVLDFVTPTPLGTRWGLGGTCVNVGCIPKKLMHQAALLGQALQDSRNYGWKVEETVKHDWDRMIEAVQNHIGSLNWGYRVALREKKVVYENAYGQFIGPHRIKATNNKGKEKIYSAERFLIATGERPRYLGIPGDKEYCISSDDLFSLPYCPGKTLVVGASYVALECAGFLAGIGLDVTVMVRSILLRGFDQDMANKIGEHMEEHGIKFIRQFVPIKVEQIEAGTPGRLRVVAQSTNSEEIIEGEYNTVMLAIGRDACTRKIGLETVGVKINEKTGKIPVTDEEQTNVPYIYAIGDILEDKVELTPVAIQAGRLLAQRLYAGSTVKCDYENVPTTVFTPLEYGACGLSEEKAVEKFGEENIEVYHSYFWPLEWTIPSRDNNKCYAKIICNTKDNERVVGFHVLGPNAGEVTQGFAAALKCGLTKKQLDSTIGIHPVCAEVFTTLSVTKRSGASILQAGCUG
UniProt Q9UBY5, sequence (whole entry, looked up): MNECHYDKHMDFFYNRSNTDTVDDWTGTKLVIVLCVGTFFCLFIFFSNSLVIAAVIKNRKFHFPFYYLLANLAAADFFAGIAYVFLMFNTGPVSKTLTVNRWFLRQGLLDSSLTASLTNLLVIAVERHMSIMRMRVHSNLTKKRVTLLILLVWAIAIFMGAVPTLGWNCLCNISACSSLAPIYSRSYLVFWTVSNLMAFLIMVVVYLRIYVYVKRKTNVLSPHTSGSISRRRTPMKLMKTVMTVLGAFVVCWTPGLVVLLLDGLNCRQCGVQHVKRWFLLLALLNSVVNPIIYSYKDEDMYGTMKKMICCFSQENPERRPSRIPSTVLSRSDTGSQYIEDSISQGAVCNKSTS

The IC50 of `O=c1[nH]c2ccccc2n1C1CCN(CCCC(c2ccc(F)cc2)c2ccc(F)cc2)CC1` is reported as 1400 ± 700 nM (ABCC1 (Homo sapiens, UniProt P33527); efflux, inhibitor, flow cytometry; SupT1 cells overexpressing ABCC1; with: 100 nM DiOC6).
With `COC(=O)c1ccccc1NC(=O)C(C)Sc1nnc(Cc2c[nH]c3ccccc23)o1` (stereo not shown) the IC50 was 25780 ± 50 nM (alpha-glucosidase; enzyme activity; with: p-nitrophenyl glucopyranoside).
With `O=C(Nc1cc(F)c(F)c(F)c1)c1cc(S(=O)(=O)N2CCOCC2)c(Cl)cc1Cl` the IC50 was > 100000 nM (LPAR3 (Homo sapiens, UniProt Q9UBY5); Ca2+ mobilization, antagonist; RH7777; with: LPA at EC50).
For `O=C(NC1CCCCC1)OCc1cn(Cc2cccc(Cl)c2)nn1`, the IC50 was 190 nM (FAAH; enzyme activity, inhibitor, fluorescence; cell membranes).
`COc1cc(C(=O)NS(=O)(=O)c2ccccc2C)ccc1Cc1cn(C)c2ccc(NC(=O)OC3CCCC3)cc12` gave an IC50 of 106000 nM (Heat shock cognate 71 kDa protein (Bos taurus, UniProt P19120); ATPase activity, inhibitor).
With `COc1ccc(-c2csc(NN=Cc3ccccc3)n2)cc1` the IC50 was > 10000 nM (MAPT (Homo sapiens, UniProt P10636); ligand displacement, radioligand).
For `CC1=C(COc2ccc(C(=O)O)cc2)C(=O)c2ccccc2C1=O`, the IC50 was 2000 nM (TXNRD1 (Homo sapiens, UniProt Q16881); enzyme activity, inhibitor; pH 7.4, with preincubation).
For `COc1ccc2nc(NCc3ccc(CNCCCNC4CCCCC4)cc3)nc(NC3CCNCC3)c2c1`, the IC50 was ~10 nM and 8.7 nM (CXCR4 (Homo sapiens, UniProt P61073); ligand displacement, radioligand; cell membranes).
With `CCOC(=O)c1c(C)oc2c1cc(NS(=O)(=O)c1ccc(OCC)cc1)c1ccccc12` the IC50 was 2900 ± 750 nM (Cyclin-dependent kinase 1, with cyclin A2 (CDK1, Homo sapiens, UniProt P06493); enzyme activity, inhibitor, ADP-Glo; upper-bound estimate, partial inhibition).
With `CN1CCC2(CC1)c1ccccc1N(Cc1ccc(C(=O)NO)s1)C2c1cccc(Cl)c1` (stereo not shown) the IC50 was 680 ± 80 nM (Histone deacetylase 8 (Schistosoma mansoni, UniProt A5H660); enzyme activity, inhibitor, Fluor-de-Lys; with: Fluor-de-Lys substrate 50 µM).
With `Cc1ccccc1C(C(=O)NC1CCCCC1)N(C(=O)CNc1ccc(F)nc1)c1cccc(F)c1` (stereo not shown) the IC50 was 1400 nM and 1390 nM (IDH1 (Homo sapiens, UniProt O75874, R132H); enzyme activity, inhibitor; racemic compound, with: α-ketoglutarate).
For `O=C(OCc1ccccc1)c1ccc(O)cc1`, the IC50 was 280 ± 30 nM (FAAH; enzyme activity, inhibitor, fluorimetric; 60 min preincubation, recombinant enzyme, with: OMP substrate 50 µM).
`CC(=O)NC(CC(=O)O)c1ccccc1[N+](=O)[O-]` (stereo not shown) gave an IC50 of 57.6 ± 0.7 µg/mL (alpha-glucosidase; inhibitor; pH 6.8, with: pNPG 1.25 mM).
With `O=c1cc(-c2ccc(O)c(O)c2)oc2cc(O)cc(O)c12` the IC50 was > 250000 nM (UGT1A9 (Homo sapiens, UniProt O60656); inhibitor; pooled human liver microsomes; no preincubation, with: propofol).
`CS(=O)(=O)OC[C@@H]1COc2c(cccc2C(N)=O)O1` gave an IC50 of > 5000 nM (PARP1 (Homo sapiens, UniProt P09874)).
`O=C(/C=C/c1ccc(O)c2oc(-c3ccc(O)c(O)c3)cc12)O[C@H](Cc1ccc(O)c(O)c1)C(=O)O` gave an IC50 of ~8000 nM and 8000 nM (HMGCR (Homo sapiens, UniProt P04035); enzyme activity, inhibitor, absorbance).
For `CCC(C)Oc1nc(N)nc(N)c1C#N` (stereo not shown), the IC50 was 13000 nM and 10000 to 20000 nM and 9600 nM (CDK2 (Homo sapiens, UniProt P24941); enzyme activity, inhibitor).
The IC50 of `O=c1cc(N2CCOCC2)oc2c(OCc3cccnc3)cccc12` is reported as 1100 nM (PIK3CB (Homo sapiens, UniProt P42338, D862Q); enzyme activity, inhibitor).
`C#Cc1ccc2c(C)c(C)c(=O)oc2c1C` gave an IC50 of 460 nM and 500 nM (Cytochrome P450 1A2 (CYP1A2, Homo sapiens, UniProt P05177); enzyme activity, inhibitor; 6 min, pH 7.6).

Some of these lines once more:
The IC50 of `O=c1[nH]c2ccccc2n1C1CCN(CCCC(c2ccc(F)cc2)c2ccc(F)cc2)CC1` is reported as 1400 ± 700 nM (ABCC1 (Homo sapiens, UniProt P33527); efflux, inhibitor, flow cytometry; SupT1 cells overexpressing ABCC1; with: 100 nM DiOC6).
